Results from different studies.
Each line is one published result; not all experiments were run side by side. Values joined by “and” are separate records of one study, mostly repeats; a detail may differ. ± marks the error that the study gave.
Tripartite terminase subunit 3 C-terminal nuclease domain: Tripartite terminase subunit 3, C-terminal nuclease domain (Human betaherpesvirus 5, UniProt P16732)
Chain of UniProt P16732 (whole entry, looked up): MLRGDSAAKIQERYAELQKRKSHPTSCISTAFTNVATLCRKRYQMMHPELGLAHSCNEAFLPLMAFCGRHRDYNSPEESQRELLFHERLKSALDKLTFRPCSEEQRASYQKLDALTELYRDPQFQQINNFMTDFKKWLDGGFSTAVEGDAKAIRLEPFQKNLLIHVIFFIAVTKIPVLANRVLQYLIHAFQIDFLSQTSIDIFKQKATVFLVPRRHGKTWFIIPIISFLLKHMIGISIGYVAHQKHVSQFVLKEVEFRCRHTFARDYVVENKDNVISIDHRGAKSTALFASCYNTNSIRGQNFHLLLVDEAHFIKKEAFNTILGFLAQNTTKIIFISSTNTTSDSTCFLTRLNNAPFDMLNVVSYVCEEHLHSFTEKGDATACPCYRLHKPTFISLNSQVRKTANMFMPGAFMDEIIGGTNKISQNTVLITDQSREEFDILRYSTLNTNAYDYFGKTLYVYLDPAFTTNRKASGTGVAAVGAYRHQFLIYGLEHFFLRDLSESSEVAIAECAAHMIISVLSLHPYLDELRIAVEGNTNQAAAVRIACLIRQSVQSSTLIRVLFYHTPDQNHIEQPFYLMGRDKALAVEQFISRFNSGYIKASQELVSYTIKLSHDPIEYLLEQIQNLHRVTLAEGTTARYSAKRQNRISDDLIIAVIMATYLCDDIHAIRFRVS
DDB1/DCAF12: DDB1/DCAF12 (Homo sapiens, UniProt Q16531+Q5T6F0)
Chain of UniProt Q5T6F0 (whole entry, looked up): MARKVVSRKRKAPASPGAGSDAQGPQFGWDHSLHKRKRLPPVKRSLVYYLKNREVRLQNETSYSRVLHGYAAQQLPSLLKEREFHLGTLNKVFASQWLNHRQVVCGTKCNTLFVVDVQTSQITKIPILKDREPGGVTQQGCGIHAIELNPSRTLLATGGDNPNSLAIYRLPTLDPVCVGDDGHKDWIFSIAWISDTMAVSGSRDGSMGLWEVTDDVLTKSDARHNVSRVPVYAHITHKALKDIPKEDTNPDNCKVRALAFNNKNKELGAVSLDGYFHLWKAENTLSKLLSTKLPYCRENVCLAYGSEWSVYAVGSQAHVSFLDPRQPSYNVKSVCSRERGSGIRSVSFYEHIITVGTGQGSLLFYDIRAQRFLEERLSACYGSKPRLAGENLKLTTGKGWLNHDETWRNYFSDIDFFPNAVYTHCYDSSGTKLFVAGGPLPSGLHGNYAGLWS
Chain of UniProt Q16531 (whole entry, looked up): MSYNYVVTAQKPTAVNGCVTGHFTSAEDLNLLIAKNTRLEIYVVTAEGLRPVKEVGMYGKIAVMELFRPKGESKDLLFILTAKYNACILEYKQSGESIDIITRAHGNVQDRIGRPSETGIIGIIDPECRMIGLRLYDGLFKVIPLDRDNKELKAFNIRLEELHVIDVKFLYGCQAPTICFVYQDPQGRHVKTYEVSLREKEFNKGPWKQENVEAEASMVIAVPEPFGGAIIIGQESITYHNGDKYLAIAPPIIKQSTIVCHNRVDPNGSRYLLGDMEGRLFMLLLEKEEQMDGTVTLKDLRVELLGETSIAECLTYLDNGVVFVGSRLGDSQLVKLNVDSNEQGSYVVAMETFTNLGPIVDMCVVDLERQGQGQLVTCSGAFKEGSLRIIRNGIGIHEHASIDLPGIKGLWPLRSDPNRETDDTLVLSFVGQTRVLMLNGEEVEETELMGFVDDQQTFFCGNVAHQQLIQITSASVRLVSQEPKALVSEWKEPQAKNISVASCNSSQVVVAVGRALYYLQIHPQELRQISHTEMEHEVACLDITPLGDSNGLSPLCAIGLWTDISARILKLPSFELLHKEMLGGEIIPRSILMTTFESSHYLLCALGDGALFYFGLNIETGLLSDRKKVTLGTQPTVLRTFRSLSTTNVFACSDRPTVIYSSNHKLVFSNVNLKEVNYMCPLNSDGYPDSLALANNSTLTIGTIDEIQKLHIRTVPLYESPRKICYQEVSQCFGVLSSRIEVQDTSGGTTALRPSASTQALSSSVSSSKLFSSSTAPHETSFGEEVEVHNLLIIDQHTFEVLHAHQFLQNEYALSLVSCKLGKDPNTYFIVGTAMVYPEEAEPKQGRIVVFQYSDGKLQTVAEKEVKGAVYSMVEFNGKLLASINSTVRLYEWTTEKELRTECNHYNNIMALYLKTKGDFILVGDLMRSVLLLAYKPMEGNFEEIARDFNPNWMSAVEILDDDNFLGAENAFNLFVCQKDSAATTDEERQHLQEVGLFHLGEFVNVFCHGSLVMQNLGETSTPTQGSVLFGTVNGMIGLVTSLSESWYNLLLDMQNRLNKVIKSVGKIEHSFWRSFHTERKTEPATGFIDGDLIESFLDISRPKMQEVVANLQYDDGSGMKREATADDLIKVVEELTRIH
Genome polyprotein NS2B-NS3 protease: Genome polyprotein, NS2B-NS3 protease (ZIKV, UniProt A0A024B7W1)
Chain of UniProt P0A7B1 (whole entry, looked up): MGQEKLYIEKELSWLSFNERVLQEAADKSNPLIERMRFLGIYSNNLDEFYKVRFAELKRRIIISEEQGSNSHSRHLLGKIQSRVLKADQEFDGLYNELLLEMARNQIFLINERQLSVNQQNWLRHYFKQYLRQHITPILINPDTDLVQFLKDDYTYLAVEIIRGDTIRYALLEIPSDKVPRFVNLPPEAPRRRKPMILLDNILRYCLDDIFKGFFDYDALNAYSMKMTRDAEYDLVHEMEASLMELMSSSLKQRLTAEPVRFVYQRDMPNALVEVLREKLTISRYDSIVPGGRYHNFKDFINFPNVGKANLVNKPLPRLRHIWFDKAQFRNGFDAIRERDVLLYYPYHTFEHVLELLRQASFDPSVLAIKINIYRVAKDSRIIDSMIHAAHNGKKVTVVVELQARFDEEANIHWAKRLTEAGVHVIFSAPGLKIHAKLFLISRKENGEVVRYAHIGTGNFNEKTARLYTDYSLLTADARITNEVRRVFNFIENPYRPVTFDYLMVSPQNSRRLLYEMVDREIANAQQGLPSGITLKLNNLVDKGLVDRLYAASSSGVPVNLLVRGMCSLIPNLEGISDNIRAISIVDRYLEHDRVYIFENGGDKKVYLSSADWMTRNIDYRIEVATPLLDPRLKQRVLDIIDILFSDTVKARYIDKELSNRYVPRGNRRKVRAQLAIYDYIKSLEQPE
Chain of UniProt Q86TI2 (whole entry, looked up): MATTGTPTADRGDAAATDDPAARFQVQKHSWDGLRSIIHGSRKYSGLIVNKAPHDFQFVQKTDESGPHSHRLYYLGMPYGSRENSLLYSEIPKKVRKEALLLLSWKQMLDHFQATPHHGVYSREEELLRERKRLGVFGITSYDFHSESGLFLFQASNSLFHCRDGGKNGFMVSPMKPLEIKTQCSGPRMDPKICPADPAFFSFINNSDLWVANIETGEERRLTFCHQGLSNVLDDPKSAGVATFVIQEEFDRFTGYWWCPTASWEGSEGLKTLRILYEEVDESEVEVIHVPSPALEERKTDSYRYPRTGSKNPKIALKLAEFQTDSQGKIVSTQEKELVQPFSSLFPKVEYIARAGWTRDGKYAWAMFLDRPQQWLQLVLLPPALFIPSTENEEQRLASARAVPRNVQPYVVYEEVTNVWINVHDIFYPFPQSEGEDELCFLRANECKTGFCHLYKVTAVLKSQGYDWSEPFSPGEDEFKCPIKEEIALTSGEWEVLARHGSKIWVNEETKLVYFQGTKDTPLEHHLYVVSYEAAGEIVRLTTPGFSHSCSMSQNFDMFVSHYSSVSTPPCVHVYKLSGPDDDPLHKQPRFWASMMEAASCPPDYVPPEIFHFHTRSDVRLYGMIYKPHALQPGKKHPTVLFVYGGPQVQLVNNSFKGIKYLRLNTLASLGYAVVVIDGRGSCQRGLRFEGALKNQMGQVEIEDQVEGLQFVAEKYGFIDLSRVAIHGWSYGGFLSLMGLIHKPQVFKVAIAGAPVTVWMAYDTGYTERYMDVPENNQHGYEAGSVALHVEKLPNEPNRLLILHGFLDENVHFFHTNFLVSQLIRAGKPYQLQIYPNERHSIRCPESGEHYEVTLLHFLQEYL
Chain of UniProt Q12791 (whole entry, looked up): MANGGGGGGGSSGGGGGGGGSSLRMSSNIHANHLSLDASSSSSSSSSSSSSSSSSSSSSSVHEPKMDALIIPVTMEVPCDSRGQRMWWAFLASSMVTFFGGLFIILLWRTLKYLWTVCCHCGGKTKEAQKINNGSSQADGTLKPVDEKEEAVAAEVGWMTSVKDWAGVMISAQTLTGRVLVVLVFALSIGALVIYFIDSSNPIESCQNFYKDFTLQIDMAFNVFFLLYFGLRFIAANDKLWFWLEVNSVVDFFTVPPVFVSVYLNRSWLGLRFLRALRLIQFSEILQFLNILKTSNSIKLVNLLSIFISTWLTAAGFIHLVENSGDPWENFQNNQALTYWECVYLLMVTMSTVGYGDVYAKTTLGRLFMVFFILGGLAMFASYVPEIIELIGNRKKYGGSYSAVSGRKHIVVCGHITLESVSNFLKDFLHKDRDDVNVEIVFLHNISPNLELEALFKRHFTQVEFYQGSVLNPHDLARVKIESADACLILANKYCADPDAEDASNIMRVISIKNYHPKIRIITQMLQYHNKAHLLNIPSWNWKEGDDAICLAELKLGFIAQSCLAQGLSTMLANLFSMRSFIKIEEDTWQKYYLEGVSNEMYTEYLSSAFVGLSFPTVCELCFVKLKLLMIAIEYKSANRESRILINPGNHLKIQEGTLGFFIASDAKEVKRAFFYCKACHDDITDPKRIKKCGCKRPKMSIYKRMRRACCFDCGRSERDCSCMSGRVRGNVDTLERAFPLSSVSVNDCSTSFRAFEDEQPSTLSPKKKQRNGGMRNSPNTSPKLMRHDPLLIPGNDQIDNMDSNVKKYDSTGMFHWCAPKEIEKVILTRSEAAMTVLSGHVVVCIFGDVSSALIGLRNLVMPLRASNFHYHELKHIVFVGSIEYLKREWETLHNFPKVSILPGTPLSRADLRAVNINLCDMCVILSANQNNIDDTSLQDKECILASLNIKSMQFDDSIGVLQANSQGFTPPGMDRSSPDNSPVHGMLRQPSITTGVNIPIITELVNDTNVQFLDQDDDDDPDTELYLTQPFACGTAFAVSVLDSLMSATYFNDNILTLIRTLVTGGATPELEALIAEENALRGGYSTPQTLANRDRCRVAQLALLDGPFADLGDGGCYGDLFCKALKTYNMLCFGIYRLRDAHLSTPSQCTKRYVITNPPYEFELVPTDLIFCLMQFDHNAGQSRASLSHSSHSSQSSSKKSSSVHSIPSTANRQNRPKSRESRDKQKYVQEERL

`O=P(O)(O)C(CNc1ccccc1)P(=O)(O)O` gave an IC50 of 63.6 µM and 64 µM (ppk (Escherichia coli, UniProt P0A7B1); enzyme activity, inhibitor).
`O=c1[nH]c2scc(-c3ccc(Cl)cc3)c2c(=O)n1O` has an IC50 of 0.23 ± 0.07 µM (Tripartite terminase subunit 3 C-terminal nuclease domain; endonuclease activity, inhibitor; together with: dsDNA substrate).
With `CCC(C(=O)Nc1cc(NC2CCNCC2)ccc1C)n1cc(Cl)cc2nc(SCc3ccc(F)cc3)nc1-2` (stereo not drawn) the IC50 was > 100 µM (Ubiquitin carboxyl-terminal hydrolase 1 (USP1, Homo sapiens, UniProt O94782); enzyme activity).
The IC50 of `COc1ccc2[nH]c3c(c2c1)CCN(C)CC3` is reported as 2.9 ± 0.2 µM (Nicotinic acetylcholine receptor alpha9/alpha10 (Rattus norvegicus, UniProt P43144+Q9JLB5); ACh-evoked current, antagonist, two-electrode voltage clamp; Xenopus laevis oocytes; holding potential -80 mV, together with: 10 µM acetylcholine).
With `CC(C)C[C@@H]1NC(=O)[C@H](CC(C)C)NC(=O)[C@H](Cc2c[nH]c3ccccc23)NC(=O)[C@H](CO)NC(=O)[C@H](Cc2c[nH]c3ccccc23)NC(=O)[C@@H]2CCCN2C(=O)[C@H](CC(C)C)NC(=O)[C@H](Cc2c[nH]cn2)NC(=O)[C@@H]2CCCN2C(=O)[C@H](CC(N)=O)NC(=O)[C@H](C)NC(=O)[C@H](Cc2ccc(O)cc2)NC(=O)[C@H](CS)NC(=O)[C@H](CCCCNC(=O)CN2CCN(CC(=O)O)CCN(CC(=O)O)CCN(CC(=O)O)CC2)NC1=O` [lutetium-177 labelled] the tissue uptake was 0.08 ± 0.03 %ID (Balb/c mouse, female, 4T1 tumour, lung; intravenous, 3.7 MBq, 4 h).
For `CCC1CCCCN1CCCNC(=O)c1sc2nc(C)cc(C)c2c1-n1cccc1` (stereo not drawn), the maximum response was -8.84% (Vero-E6; CellTiter-Glo ATP; 72 h, retest 8-point duplicates; relative to: DMSO 0%, hyamine -100%, more negative, more toxic).
`Cc1cc2cc(n1)-c1cnn(C)c1OCCC[C@@H](C)Cn1c(nc3ccc(CN4CCN(C)CC4)cc31)NC2=O` gave an IC50 of > 0.1 µM (Receptor tyrosine-protein kinase erbB-2 (ERBB2, Homo sapiens, UniProt P04626)).
For `Fc1ccc(N2CCNCC2COc2ccc3c(c2)OCO3)cc1` (stereo not drawn), the IC50 was 15.1 ± 7.55 µM (P2X purinoceptor 4 (P2RX4, Homo sapiens, UniProt Q99571); calcium flux, inhibitor, Ca2+ flux; human cells).
`[Cu+2]` gave an IC50 of 2.8 ± 0.15 µM (Protein-arginine-phosphatase (ywle, Geobacillus stearothermophilus, UniProt S0F332)).
With `CNC(C)Cc1ccc2nonc2c1` (stereo not drawn) the IC50 was 6.6 ± 1.6 µM (Sodium-dependent noradrenaline transporter (SLC6A2, Homo sapiens, UniProt P23975)).
`O=C(c1ccc(Cl)cc1)N1CCN2C(=O)N(OC(=O)N3CCOc4ccccc43)C(=O)C2C1` (stereo not drawn) — result for “mean protein ratio”: 1.03 (Dipeptidyl peptidase 9 (DPP9, Homo sapiens, UniProt Q86TI2); MS-based ABPP; SW-620 conditioned medium; 10 µM, 1 h, 37 °C; relative to: compound over DMSO, lower = more inhibition).
For `CC[C@H](C)[C@H](NC(=O)[C@@H](N)CC(=O)O)C(=O)N[C@@H](CCCNC(=N)N)C(=O)N[C@@H](CCCCN)C(=O)N1CCC[C@H]1C(=O)NCC(=O)N[C@@H](CCC(=O)O)C(=O)N[C@@H](CO)C(=O)N[C@@H](C)C(=O)N[C@@H](CCC(=O)O)C(=O)O`, the IC50 was 53.8 µM (DDB1/DCAF12; binding, TR-FRET competition).
The IC50 of `COc1ccc(-c2cnc3[nH]c(C#Cc4cccnc4)cc3c2)cc1OC` is reported as > 10 µM (AP2-associated protein kinase 1 (AAK1, Homo sapiens, UniProt Q2M2I8)).
`NCCOCC(=O)N1CCCC(C(=O)NCc2nc(-c3ccc(-c4ccc(F)cc4)cc3)cs2)C1` (stereo not drawn) has an IC50 of 0.072 µM (20S proteasome (Plasmodium falciparum, UniProt A0A5K1K7U1+Q8I261+Q8IJT1); without WLW-vs, together with: Succ-LLVY-AMC 20 µM).
`CC[C@H](C)[C@H](NC(=O)[C@H](CCSC)NC(=O)[C@H](CC(=O)O)NC(=O)[C@H](CCC(N)=O)NC(=O)[C@H](CC(C)C)NC(=O)[C@@H](N)CCC(=O)O)C(=O)N[C@@H](CC(N)=O)C(=O)O` gave an IC50 of 4.33 µM (Protein cereblon, with DDB1 (CRBN, Homo sapiens, UniProt Q96SW2); binding, ligand, TR-FRET displacement).
For `O=c1[nH]c2cc(-c3ccc(F)cc3)sc2c(=O)n1O`, the IC50 was 0.48 ± 0.17 µM (Tripartite terminase subunit 3 C-terminal nuclease domain; endonuclease activity, inhibitor; together with: dsDNA substrate).
With `Nc1c2c(nc3c1C(c1ccc(Cl)c(Cl)c1)c1ccc(OCC(=O)c4ccc(Cl)cc4)cc1O3)CCCC2` (stereo not drawn) the IC50 was 0.746 µM (Amyloid-beta precursor protein (APP, Homo sapiens, UniProt P05067); Aβ42 self-aggregation, inhibitor, thioflavin T fluorescence).
`CC[C@H](C)[C@@H]1NC(=O)[C@@H]2CCCN2C(=O)[C@H](CC(C)C)NC(=O)[C@H](CC(C)C)NC(=O)CNC(=O)[C@@H](NC(=O)[C@@H](NC(=O)[C@H](CC(=O)O)NC(=O)CNC(=O)[C@@H](NC(=O)[C@H](C)NC(=O)CNC(=O)[C@H](CCCCN)NC(=O)[C@H](CC(C)C)NC(=O)[C@H](CC(C)C)NC(=O)[C@H](CCCCN)NC(=O)CNC(=O)[C@@H](NC(=O)[C@@H](N)CC(C)C)C(C)C)C(C)C)C(C)C)CSSC[C@@H](C(=O)O)NC1=O`: “log2 fold change” -2.17 (RNA-seq, refers to: Igfbpl1; mouse, traumatic brain injury model, frontal cortex and hippocampus; dose not given; relative to: TBI alone).
`COc1cc(Nc2ncc(F)c(Nc3ccc4c(n3)NC(=O)C(C)(C)O4)n2)cc(OC)c1OC` gave an IC50 of > 10 µM (Potassium-transporting ATPase alpha chain 1 (Sus scrofa, UniProt P19156); ATPase activity, inhibitor; stomach).
The tissue uptake of `CC(C)[C@@H]1NC(=O)[C@H](Cc2ccccc2)NC(=O)[C@@H]2NC(=O)[C@H](Cc3ccccc3)NC(=O)[C@@H]3CCCN3C(=O)CNC(=O)[C@H](Cc3ccccc3)NC(=O)[C@@H]3CNCCCC[C@@H](C(=O)O)NC(=O)[C@@H]4NC(=O)[C@H](CC(N)=O)NC(=O)CNC(=O)[C@H]([C@@H](O)C(=O)O)NC(=O)[C@H](CSC[C@@H](NC(=O)[C@H](CCC(N)=O)NC(=O)[C@H](CCCCNC(=O)c5ccc(NN)nc5)NC(=O)[C@@H](N)CS[C@H]4C)C(=O)N[C@@H](CS[C@H]2C)C(=O)N3)NC1=O` [technetium-99m labelled] is reported as 0.13 ± 0.02 %ID/g (rat, saline control, skin; intravenous, 2 h after tracer, tracer 24 h after reperfusion).
`CC[C@H](C)[C@H](NC(=O)[C@H](Cc1ccccc1)NC(=O)[C@H](CCC(=O)O)NC(=O)[C@H](CCCNC(=N)N)NC(=O)[C@H](C)NC(=O)[C@H](C)NC(=O)[C@H](CCC(N)=O)NC(=O)[C@H](CCC(=O)O)NC(=O)[C@H](CCC(=O)O)NC(=O)[C@H](CC(C)C)NC(=O)[C@H](Cc1ccc(O)cc1)NC(=O)[C@H](CO)NC(=O)[C@H](CO)NC(=O)[C@@H](NC(=O)[C@H](CC(=O)O)NC(=O)[C@H](CO)NC(=O)[C@@H](NC(=O)[C@H](Cc1ccccc1)NC(=O)[C@@H](NC(=O)CNC(=O)[C@H](CCC(=O)O)NC(=O)[C@H](C)NC(=O)CCc1c[nH]cn1)[C@@H](C)O)[C@@H](C)O)C(C)C)C(=O)N[C@@H](C)C(=O)N[C@@H](Cc1c[nH]c2ccccc12)C(=O)N[C@@H](CC(C)C)C(=O)N[C@H](C(=O)N[C@@H](CCCNC(=N)N)C(=O)NCC(=O)N[C@@H](CCCNC(=N)N)C(=O)N[C@@H](CCCCNC(=O)COCCOCCNC(=O)COCCOCCNC(=O)CC[C@H](NC(=O)CCCCCCCCCCCCCCCCC(=O)O)C(=O)O)C(=O)NCC(=O)NCC(=O)N[C@@H](CO)C(=O)N[C@@H](CCCCNc1c(NCCCCCN(O)C(=O)CCC(=O)NCCCCCN(O)C(=O)CCC(=O)NCCCCCN(O)C(C)=O)c(=O)c1=O)C(=O)O)C(C)C` [zirconium-89 labelled] has a tissue uptake of 0.44 %ID/g (gamma counting; rat, stomach-duodenum; intravenous, 3 nmol/kg, 72 h).
For `C[C@H]1CN(c2n[nH]c3nc(N[C@H]4CC[C@H](NS(=O)(=O)CCC(F)(F)F)CC4)ncc23)CCO1`, the IC50 was ≥ 20 µM (Stress-70 protein, mitochondrial (HSPA9, Homo sapiens, UniProt P38646); biochemical).
`O=c1[nH]c2cc(-c3ccc(Cl)cc3)sc2c(=O)n1O` has an IC50 of 6 ± 3.8 µM (Tripartite terminase subunit 3 C-terminal nuclease domain; inhibitor; human cytomegalovirus).
For `NCC(=O)N[C@@H](CCC(=O)O)C(=O)N[C@@H](CO)C(=O)N[C@@H](CCC(=O)O)C(=O)N[C@@H](CCC(=O)O)C(=O)O`, the IC50 was 24.6 µM (DDB1/DCAF12; binding, TR-FRET competition).
With `CN(C)C(=O)C(CCN1CCC(O)(c2ccc(Cl)cc2)CC1)(c1ccccc1)c1ccccc1` the IC50 was 7.38 ± 2.4 µM (Calcium-activated potassium channel subunit alpha-1, with LRRC26 γ1 subunit (KCNMA1, Homo sapiens, UniProt Q12791); BK channel conductance, inhibitor, inside-out patch clamp; BKα/γ1, Vm 10 mV, nominally Ca2+-free).
`C[C@@H]1N/C(=C\[N+](=O)[O-])N(Cc2ccc(Cl)nc2)[C@@H]1C` gave a Ki of 0.000394 ± 0.000179 µM (radioligand binding; Musca domestica head membranes; together with: [3H]imidacloprid).
With `CN1CCCC2(C1)CN(Cc1cccnc1)c1ccc(C(=O)NCC3CCCCC3)cc12` (stereo not drawn) the maximum response was 10.6% (Vero-E6; CellTiter-Glo ATP; 72 h, second round 5-point; relative to: DMSO 0%, hyamine -100%, more negative, more toxic).
For `Nc1ncnc2c1ncn2[C@@H]1O[C@H](C[C@@H](N)CC[C@H](N)C(=O)O)[C@@H](O)[C@H]1O`, the IC50 was 9.02 µM (mRNA cap guanine-N(7) methyltransferase (RNMT, Homo sapiens, UniProt O43148); enzyme activity, inhibitor).
For `COc1cccc(C(=O)Nc2nc3nc(C)cc(C)c3s2)c1`, the IC50 was 16 ± 1 µM (Genome polyprotein NS2B-NS3 protease; inhibitor).
`C#CCCCCCCn1nc(OC)oc1=O` has an IC50 of > 50 µM (Uncharacterized hydrolase SAUSA300_2518 (Staphylococcus aureus, UniProt Q2FDS6); enzyme activity, inhibitor; USA300; 1 h preincubation, enzyme 0.5 nM, together with: 20 µM 4-MU octanoate).
`CCOP(=S)(OCC)SCSCC` gave an IC50 of 311 ± 43.3 µM (Acetylcholinesterase (ache, Electrophorus electricus, UniProt O42275); enzyme activity, inhibitor).
`O=C(Nc1nc2nc(-c3ccccc3)cc(C(F)(F)F)c2s1)c1cc2ccccc2o1` has an IC50 of 0.83 ± 0.05 µM (Genome polyprotein NS2B-NS3 protease; inhibitor).
The tissue uptake of `C[C@@H](O)[C@@H](CO)NC(=O)[C@@H](CCCNC(=N)N)NC(=O)[C@@H]1CCCN1C(=O)[C@@H]1CSSC[C@H](NC(=O)[C@H](Cc2ccccc2)NC(=O)CN2CCN(CC(=O)O)CCN(CC(=O)O)CCN(CC(=O)O)CC2)C(=O)N[C@@H](Cc2ccc(O)cc2)C(=O)N[C@@H](Cc2ccccc2)C(=O)N[C@@H](CCC(N)=O)C(=O)N[C@@H](CC(N)=O)C(=O)N1` [gallium-68 labelled] is reported as 0.26 %ID/g (Wistar rat, liver; intravenous, 8 MBq, 60 min, group mean).
With `CCCCc1cc2c(cc1C(=C1CC1)c1ccc(C(=O)O)cc1)C(C)(C)CCC2(C)C` the IC50 was 0.45 µM (Retinoic acid receptor RXR-alpha (RXRA, Homo sapiens, UniProt P19793); binding; together with: [3H]9-cis-retinoic acid).
With `COc1ccc(N2C(=O)N(c3c(C)cccc3Cl)Cc3cnc(Nc4ccc(C5CCN(C)CC5)cc4OC)nc32)nc1` the inhibition was 1.27% (Protein kinase C zeta type (PRKCZ, Homo sapiens, UniProt Q05513); kinase activity, inhibitor; 0.5 µM, kinase PKC-ZETA).
With `O=C(O)C[C@H](NC(=O)[C@H](CC(=O)O)NC(=O)[C@H](CC(=O)O)NC(=O)[C@H](CC(=O)O)NC(=O)[C@H](CC(=O)O)NC(=O)[C@H](CC(=O)O)NC(=O)[C@H](CC(=O)O)NC(=O)[C@H](CC(=O)O)NC(=O)[C@H](CC(=O)O)NC(=O)[C@H](CC(=O)O)NC(=O)[C@H](CC(=O)O)NC(=O)[C@H](CCCCNC(=O)c1ccc(C(=O)NCCOCCOB2BBBBBB3BBBB3B2)cc1)NC(=O)CN1CCN(CC(=O)O)CCN(CC(=O)O)CCN(CC(=O)O)CC1)C(=O)O` [gallium-67 labelled] the tissue uptake was 0.32 %ID/g (ddY male mice, heart; intravenous, 37 kBq, 1 h).
With `Cc1cc(C)c2sc(NC(=O)c3ccc(Br)o3)nc2n1` the IC50 was 66 ± 3 µM (Genome polyprotein NS2B-NS3 protease; inhibitor).
For `COc1cc2c(Oc3ccc4[nH]c(C)cc4c3F)ccnc2cc1OCC1(N)CC1`, “gingival bleeding incidence” read 0% (paediatric refractory sarcoma patients; 8 mg).
`Cc1cc(Nc2ccc3ccccc3c2)n2ncnc2n1` gave an IC50 of > 1 µM (MT-CYB, bc1 complex (Plasmodium falciparum, UniProt Q02768); enzyme activity, inhibitor).
